# Published values of several laboratories.
# Lines come from different studies, so protocols differ.
# Sequence of UniProt O75460 (whole entry, looked up): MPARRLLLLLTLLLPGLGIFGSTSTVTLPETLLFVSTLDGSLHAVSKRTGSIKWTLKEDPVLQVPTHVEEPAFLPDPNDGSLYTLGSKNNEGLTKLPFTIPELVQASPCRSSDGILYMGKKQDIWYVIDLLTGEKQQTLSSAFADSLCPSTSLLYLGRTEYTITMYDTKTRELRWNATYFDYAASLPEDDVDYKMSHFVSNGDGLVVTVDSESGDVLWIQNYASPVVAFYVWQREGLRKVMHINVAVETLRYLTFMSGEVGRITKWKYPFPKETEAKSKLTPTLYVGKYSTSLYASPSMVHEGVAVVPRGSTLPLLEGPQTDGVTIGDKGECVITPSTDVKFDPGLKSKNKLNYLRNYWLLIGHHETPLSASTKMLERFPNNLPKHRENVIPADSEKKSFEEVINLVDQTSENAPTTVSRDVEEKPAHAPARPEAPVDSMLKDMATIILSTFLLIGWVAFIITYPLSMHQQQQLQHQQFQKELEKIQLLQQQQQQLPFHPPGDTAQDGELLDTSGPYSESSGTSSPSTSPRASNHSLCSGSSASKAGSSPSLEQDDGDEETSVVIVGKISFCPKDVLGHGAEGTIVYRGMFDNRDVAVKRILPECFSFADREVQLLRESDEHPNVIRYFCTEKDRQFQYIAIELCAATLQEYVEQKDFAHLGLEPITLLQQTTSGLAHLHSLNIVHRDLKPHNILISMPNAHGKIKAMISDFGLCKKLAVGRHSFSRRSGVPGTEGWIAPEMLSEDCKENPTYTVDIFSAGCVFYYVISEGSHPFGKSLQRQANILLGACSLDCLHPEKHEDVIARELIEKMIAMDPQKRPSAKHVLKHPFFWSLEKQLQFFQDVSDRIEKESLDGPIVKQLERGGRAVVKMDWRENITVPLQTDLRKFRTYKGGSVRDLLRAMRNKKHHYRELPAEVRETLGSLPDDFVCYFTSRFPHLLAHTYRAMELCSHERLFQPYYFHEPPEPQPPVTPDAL
# Sequence of UniProt O96017 (whole entry, unmodified, looked up): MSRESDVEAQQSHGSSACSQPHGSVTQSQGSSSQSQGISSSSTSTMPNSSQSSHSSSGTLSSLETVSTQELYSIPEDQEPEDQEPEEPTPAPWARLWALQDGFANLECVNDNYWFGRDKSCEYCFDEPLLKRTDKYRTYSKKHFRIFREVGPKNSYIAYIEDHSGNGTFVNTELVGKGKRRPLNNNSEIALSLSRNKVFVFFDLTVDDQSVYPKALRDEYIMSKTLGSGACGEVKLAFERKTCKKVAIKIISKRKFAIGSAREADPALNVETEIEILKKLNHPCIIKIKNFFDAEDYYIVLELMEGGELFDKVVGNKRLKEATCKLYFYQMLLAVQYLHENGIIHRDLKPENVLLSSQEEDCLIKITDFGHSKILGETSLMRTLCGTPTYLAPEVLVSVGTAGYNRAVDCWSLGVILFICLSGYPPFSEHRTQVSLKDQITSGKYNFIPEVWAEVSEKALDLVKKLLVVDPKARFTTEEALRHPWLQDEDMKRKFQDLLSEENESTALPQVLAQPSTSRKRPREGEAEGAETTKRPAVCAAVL
# Sequence of UniProt P19784 (whole entry, looked up): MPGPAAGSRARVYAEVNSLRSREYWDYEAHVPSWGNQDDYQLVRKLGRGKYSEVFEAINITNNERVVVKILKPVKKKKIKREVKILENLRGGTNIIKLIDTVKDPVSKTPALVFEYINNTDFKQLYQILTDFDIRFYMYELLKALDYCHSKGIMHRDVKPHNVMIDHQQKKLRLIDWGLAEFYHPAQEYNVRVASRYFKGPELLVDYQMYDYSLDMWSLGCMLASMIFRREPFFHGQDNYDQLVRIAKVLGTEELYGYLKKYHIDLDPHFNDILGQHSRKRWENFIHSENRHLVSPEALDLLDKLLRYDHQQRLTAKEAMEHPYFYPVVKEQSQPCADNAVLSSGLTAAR
SMILES,target or system,assay,system,setting,measurement,value
CCOc1ccc2ccc(=O)oc2c1,,metabolic stability,"male beagle dog, hepatocytes",1 µM,half-life,< 15 min
COc1ccc2c(c1)CN(C(=O)CCN1CCC(Cc3ccccc3)CC1)CC[S@@+]2[O-],,,"male human, plasma","intravenous, 0.01 mg/kg, single dose, healthy volunteers",half-life,288 min
N#C[C@@]12C[C@@H]1[C@@H](n1cnc3c(N[C@@H](C4CCC4)C4CC4)nc(I)nc31)[C@H](O)[C@@H]2O,,,"male Wistar rat, plasma","oral, 10 mg/kg",half-life,105 min
O=C(c1ccc(F)cc1)C1CCN(CCn2c(=O)[nH]c3ccccc3c2=O)CC1,,metabolic stability,"dog, liver microsomes",,half-life,45.2 min
C=CC(=O)N1CCC(COCC(=O)N2CCN(c3nc(-c4cnc(N)nc4C(F)F)nc(N4CCOC[C@@H]4C)n3)CC2)CC1,"Serine/threonine-protein kinase/endoribonuclease IRE1 (ERN1, Homo sapiens, UniProt O75460)","binding, competition with immobilised ligand",,1 µM,remaining binding,100%
O=C1CC[C@H](N2Cc3cc(N4CCN(CC5CCN(c6ccc([C@@H]7c8ccc(O)cc8CC[C@@H]7c7ccccc7)cc6)CC5)CC4)ccc3C2=O)C(=O)N1,,,"male Sprague-Dawley rat, plasma","intravenous, 5 mg/kg, single dose, fed",half-life,164 min
CNc1ncc2c(/C=C/C(=O)N3CCC(OC)CC3)nn(Cc3cccc(C(F)(F)F)c3)c2n1,"Casein kinase II subunit alpha' (CSNK2A2, Homo sapiens, UniProt P19784)","enzyme activity, inhibitor, radiometric",,1 µM,remaining activity,109%
O=c1ccc2ccc(O)cc2o1,,metabolic stability,"dog, liver microsomes",,half-life,2.01 min
O=C(COc1ccc(Cl)cc1)NC12CC(c3nnc([C@H]4C[C@@H](OC(F)(F)F)C4)o3)(C1)C2,,,"human, plasma","oral, 200 mg, single dose, fasted, healthy volunteers",half-life,1840 min
C=CCn1c(=O)c2cnc(Nc3ccc(N4CCN(C)CC4)cc3)nc2n1-c1ccc2c(n1)[C@@](O)(CC)CC2,,metabolic stability,"dog, liver microsomes",,half-life,18 min
CCCC(=O)N[C@@H](Cc1ccccc1)C(=O)N[C@@H](Cc1ccc2ccccc2c1)C(=O)N[C@@H](CCCNC(=N)N)C(=O)N[C@@H](CCCNC(=N)N)C(=O)N[C@@H](CCCNC(=N)N)C(=O)N[C@@H](CCCNC(=N)N)C(=O)N[C@@H](CC)C(=O)N[C@@H](CCCCNC(=S)Nc1ccc2c(c1)C(=O)OC21c2ccc(O)cc2Oc2cc(O)ccc21)C(N)=O,,chemical stability,"human, serum",,half-life,~15 min
COc1cc(-c2cncc3c2CN(C)Cc2cc(N4CCNCC4)ccc2-3)cc(OC)c1OC,"Serine/threonine-protein kinase Chk2 (CHEK2, Homo sapiens, UniProt O96017, I157T)","enzyme activity, inhibitor",,1 µM,remaining activity,97%

# A few entries again:
SMILES,target or system,assay,system,setting,measurement,value
COc1ccc2c(c1)CN(C(=O)CCN1CCC(Cc3ccccc3)CC1)CC[S@@+]2[O-],,,"male human, plasma","intravenous, 0.01 mg/kg, single dose, healthy volunteers",half-life,288 min
CCOc1ccc2ccc(=O)oc2c1,,metabolic stability,"male beagle dog, hepatocytes",1 µM,half-life,< 15 min
